Measurements collected from several papers.
A part holds a random share of what one study measured.

Block 1 — method: RNA Bind-n-Seq; molecule type: RNA; medium: in vitro; tested at: 365 nM; baseline: no-protein control; direction: higher = stronger binding; endpoint: RBNS enrichment (R)
Target: RNA binding protein fox-1 homolog 2, RRM domain, GST-SBP tag (RBFOX2, Homo sapiens, UniProt O43251-10, residues 100-194)
Setting: natural RNA segment, single round, ends assumed
Residues (chain): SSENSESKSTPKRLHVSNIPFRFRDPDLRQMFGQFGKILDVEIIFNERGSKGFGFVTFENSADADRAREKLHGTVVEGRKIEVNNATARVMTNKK
Sequence = GGGAGUUCUACAGUCCGACGAUCGCUUCUGCCGGGUUUUUGUACAUGUAAACACUGUCAAGCUGUGAAAGAAAGUGGCUGGAGGUGUGUUUGGUGUGAGAGGUGAGCAAUAAAGUACCUGCACAUUCUCUCCUUGGAAUUCUCGGGUGCCAA; result = 0.623
Sequence = GGGAGUUCUACAGUCCGACGAUCGGUCAAAAAGUGAUGGCUUUCAGGACUUGUUUUUUAUCCUGCCUCACAGUUGUUAAAGUCUGUUCCAAGGCAUCACCUUCCUUCUCUACCCAACAACCCUGUGUAACAACUGGAAUUCUCGGGUGCCAA; result = 0.341
Sequence = GGGAGUUCUACAGUCCGACGAUCAGGCCACCUCUCCCCGGGCCCCCGCGCCUCUGCCGGACACGGACCGGCCCCUCAGCCCCCACCGAGGACGCAGCCACUGGGGGGAAAGGGAGACACAGCGGACCCCGGCCUGGAAUUCUCGGGUGCCAA; result = 0.381

Block 2 — method: protein binding microarray; molecule type: double-stranded DNA, one strand shown; medium: in vitro; tested at: not given; baseline: not given; direction: higher = stronger binding; endpoint: E-score
Target: Histone acetyltransferase KAT6A, both winged helices, GST fusion (KAT6A, Homo sapiens, UniProt Q92794, residues 1-181)
Setting: 8-mer, flanks averaged, mean of 2 arrays, mostly near background
Target sequence (chain): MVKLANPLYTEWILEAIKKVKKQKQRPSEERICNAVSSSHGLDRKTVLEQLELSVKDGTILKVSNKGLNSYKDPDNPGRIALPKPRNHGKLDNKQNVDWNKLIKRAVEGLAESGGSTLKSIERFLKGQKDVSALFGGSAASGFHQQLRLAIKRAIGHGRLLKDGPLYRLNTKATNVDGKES
Sequence = AATGGTCT; result = -0.0661
Sequence = CTACCGAA; result = -0.0155
Sequence = ATTGTTTA; result = -0.147
Sequence = CAATGGGG; result = -0.101
Sequence = CATCACAA; result = -0.0279
Sequence = AATCTAGC; result = -0.112

Block 3 — method: protein-binding microarray; molecule type: double-stranded DNA, one strand shown; medium: in vitro; tested at: 250 nM; setting: 60-bp whole probe; added: salmon DNA 0.4 mg/ml; baseline: random background probes; direction: higher = stronger binding; endpoint: log fluorescence
Target: Interferon regulatory factor 5, full length, phosphomimetic (IRF5, Homo sapiens, UniProt Q13568-2, residues 1-514, K96S/S451D/S453D/S456D/S462D)
Sequence = GCCTAGCACTTCGGTCTCCTTCTCCTTTAGTGCTAGGTCTTGATTCGCTTGACGCTGCTG; result = 1.13 z-score
Sequence = GCCTAGCACTTAGATATCAGACTGGATTAGTGCTAGGTCTTGATTCGCTTGACGCTGCTG; result = 0.225 z-score
Sequence = GCCTAGCACATGTATATATGTGTATATATGTGCTAGGTCTTGATTCGCTTGACGCTGCTG; result = 0.24 z-score

Other studies, line by line
Molecule = PhoQ, residues 284 288 289 292 302 303 SLKLQV; target = PhoP, residues 12 14 15 18 19 IQSYL (Escherichia coli, UniProt P23836); assay = Sort-seq, item: YFP reporter; system = E. coli; conditions = PhoQ-PhoP variant library, added: 10 µM Mg2+; how to read = baseline: high Mg2+ state, higher = stronger signaling; endpoint = fold induction; result = 13.9

For quick reference, copied from above (block 2):
Sequence = CATCACAA; result = -0.0279
Sequence = AATCTAGC; result = -0.112
